Results of several laboratories.
Each numbered part is a random draw from the data of one study; scales do not carry over between parts.

Set 1
Target: Prothrombin, mature alpha-thrombin (F2, Homo sapiens, UniProt P00734)
Technique: aptamer microarray, sandwich
Form: DNA with 2'F-ANA
Medium: in vitro
Tested at: 200 nM
Notes: whole 15-mer aptamer, many near background
With: Cy3 exosite-II aptamer, 400 nM
Reading: higher = stronger binding
Strand: GGTTGGTGTGGTTGG
`2'F-ANA at 2 3 4 5 6 7 13 15`: “mean fluorescence intensity” 57.1 a.u.
`2'F-ANA at 2 4 5 6 13 15`: “mean fluorescence intensity” 50.3 a.u.
`2'F-ANA at 1 2 3 5 9 13 14`: “mean fluorescence intensity” 41.7 a.u.
`2'F-ANA at 1 3 5 6 8 9 10 15`: “mean fluorescence intensity” 50.4 a.u.
`2'F-ANA at 1 2 4 7 9 12 14` — result for “mean fluorescence intensity”: 66.4 a.u.
Under “mean fluorescence intensity”, `2'F-ANA at 1 4 10` is recorded as 78.4 a.u.
`2'F-ANA at 1 2 3 6 8 10 11 12 13 14` — result for “mean fluorescence intensity”: 67.4 a.u.

Set 2
Target: Sal-like protein 4, full length isoform B (SALL4, Homo sapiens, UniProt Q9UJQ4-2, residues 1-616)
Technique: universal PBM
Form: double-stranded DNA, one strand shown
Medium: in vitro
Tested at: not given
Notes: 8-mer, flanks averaged, mean of replicates
Reading: higher = stronger binding
Construct (chain): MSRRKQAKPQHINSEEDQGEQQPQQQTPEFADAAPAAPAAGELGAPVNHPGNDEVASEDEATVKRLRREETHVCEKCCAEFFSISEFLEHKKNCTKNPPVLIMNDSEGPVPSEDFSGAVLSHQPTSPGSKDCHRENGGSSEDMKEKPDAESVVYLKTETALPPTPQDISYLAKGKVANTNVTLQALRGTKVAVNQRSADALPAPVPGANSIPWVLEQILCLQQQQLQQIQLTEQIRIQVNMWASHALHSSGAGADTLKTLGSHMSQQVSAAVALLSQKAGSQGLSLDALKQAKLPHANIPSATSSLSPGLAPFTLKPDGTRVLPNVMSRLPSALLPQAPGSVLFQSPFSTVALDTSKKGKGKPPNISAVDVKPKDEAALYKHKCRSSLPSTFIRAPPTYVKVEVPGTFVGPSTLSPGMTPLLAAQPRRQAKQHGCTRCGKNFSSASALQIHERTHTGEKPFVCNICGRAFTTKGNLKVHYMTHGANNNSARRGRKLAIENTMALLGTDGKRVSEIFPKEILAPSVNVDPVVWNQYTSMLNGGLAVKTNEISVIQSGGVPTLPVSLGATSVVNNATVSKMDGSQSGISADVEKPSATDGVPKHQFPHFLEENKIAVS
With `ACGAATCA` the E-score was 0.0237.
With `GGAACGCA` the E-score was -0.26.
With `GGGTGTTA` the E-score was -0.0173.
For `CATATAGG`, the E-score was 0.248.
For `AAGATTGA`, the E-score was 0.187.
The E-score of `GGAACAAC` is reported as -0.0889.

Set 3
Target: Ras GTPase-activating protein-binding protein 1, full length (G3BP1, Homo sapiens, UniProt Q13283)
Sequence of UniProt Q13283 (whole entry, looked up): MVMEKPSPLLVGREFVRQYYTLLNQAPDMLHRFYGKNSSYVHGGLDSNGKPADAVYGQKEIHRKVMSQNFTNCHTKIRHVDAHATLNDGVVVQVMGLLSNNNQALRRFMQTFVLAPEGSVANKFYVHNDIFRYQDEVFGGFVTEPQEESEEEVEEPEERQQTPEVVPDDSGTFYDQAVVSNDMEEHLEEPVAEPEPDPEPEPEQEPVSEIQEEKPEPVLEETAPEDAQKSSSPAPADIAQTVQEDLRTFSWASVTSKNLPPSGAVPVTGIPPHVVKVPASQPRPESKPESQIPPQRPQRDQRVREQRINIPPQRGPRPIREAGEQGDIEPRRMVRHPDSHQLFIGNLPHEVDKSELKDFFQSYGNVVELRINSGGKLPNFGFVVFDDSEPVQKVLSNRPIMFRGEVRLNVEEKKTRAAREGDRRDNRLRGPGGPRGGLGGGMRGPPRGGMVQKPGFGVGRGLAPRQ
Technique: RNA Bind-n-Seq
Form: RNA
Medium: in vitro
Tested at: 200 nM
Notes: whole 134-nt RNA, ends assumed
With: 150 mM LiCl
Baseline: input library
Reading: higher = stronger binding
Each molecule: 7-deaza-guanosine replaces G
For `GGGAGUUCUACAGUCCGACGAUCUGCUUCUGAGUUGCCCAGGAGACCACUGGCAGAUGUCCCGGCGAAGAGAAGAGACACAUUGUUGGAAGAAGCAGCCCAUGACAGCUCCCCUGGAAUUCUCGGGUGUCAAGG`, the log2 enrichment was 0.911.
The log2 enrichment of `GGGAGUUCUACAGUCCGACGAUCGUCCUGUGCUACACAUCGUAUGUACCGAAUCGGGGUUUUUGGGUUUUUGGGUUUUUGGGAAAGUAUUAUGUUACGCCGUUCGGAUCUGCAUGGAAUUCUCGGGUGUCAAGG` is reported as -0.243.
`GGGAGUUCUACAGUCCGACGAUCCACAGACAACACGCACCCAAAAAGACACAGAGGGAAGGGGUUGGGAUGGGGACAGGGUGCACAGCAGGGCGGGGUAGGACCCCAGCCCCUUGGAAUUCUCGGGUGUCAAGG` has a log2 enrichment of 0.343.
With `GGGAGUUCUACAGUCCGACGAUCCUCAAGUCCUGUGCUACACAUCGUAUGUACCGAAUCGGGAGGGAGGGGAGGGGAAAGUAUUAUGUUACGCCGUUCGGAUCUGCACUUCCAUGGAAUUCUCGGGUGUCAAGG` the log2 enrichment was -0.248.

Other studies, line by line
The fold induction of `PhoQ, residues 284 288 289 292 302 303 MLMVEA` is reported as 4.29 (PhoP, residues 12 14 15 18 19 LHATL (Escherichia coli, UniProt P23836); Sort-seq, item: YFP reporter; E. coli; PhoQ-PhoP variant library, with: 10 µM Mg2+; baseline: high Mg2+ state, higher = stronger signaling).
